Published values collected from several papers.
Numbered parts are unrelated; each lists some results of a single study. Positions count from the first letter of the parent shown.

Sample 1
Target: Interferon regulatory factor 5, full length, phosphomimetic (IRF5, Homo sapiens, UniProt Q13568-2, residues 1-514, K96S/S451D/S453D/S456D/S462D)
Technique: protein-binding microarray
Form: double-stranded DNA, one strand shown
Medium: in vitro
Concentration: 250 nM
Setting: 60-bp whole probe
With: salmon DNA 0.4 mg/ml
Relative to: random background probes
Reading: higher = stronger binding
Constant ends, left off below: GCCTAGCAC … GTCTTGATTCGCTTGACGCTGCTG
`GACGATTTCGGGACTGCAGACGTGCTA` has a log fluorescence of 1.91 z-score.
`TCAAGTTTTCTTTTCCAACTGTGCTAG` has a log fluorescence of 1.21 z-score.
The log fluorescence of `TTAGGTTTCCTTATCCTTCAGTGCTAG` is reported as 0.999 z-score.
For `GACGGTCTTCTACTGCTGACGTGCTAG`, the log fluorescence was -0.226 z-score.
`GTGTTTTCATTTTATGACAGCGTGCTA` has a log fluorescence of 2.83 z-score.
`TTAGGACTGGGTCTTGGTTAGTGCTAG` gave a log fluorescence of -0.381 z-score.
For `TCACATCTCCAAAGTCAGACTGTGCTA`, the log fluorescence was 0.0735 z-score.
`CACGGTCTCCTTTTCCTGACGTGCTAG` has a log fluorescence of 0.00238 z-score.
The log fluorescence of `TCTTGTCTGGATGTGCCTTAGTGCTAG` is reported as -0.256 z-score.
The log fluorescence of `GACTGTCTCCTTATCCTGACGTGCTAG` is reported as 0.13 z-score.
`CGCGCTTCTCGGCGGCGAAGGTGCTAG` has a log fluorescence of -0.7 z-score.
`TTCGATTTCAGACTGGATTAGTGCTAG` has a log fluorescence of 0.945 z-score.
With `GAAGGTATCCTTCTCCTGACGTGCTAG` the log fluorescence was 0.14 z-score.
For `GACGGGTCCCTTTTCCTGACGTGCTAG`, the log fluorescence was 0.0462 z-score.
`TTAGGACTAGGGACTGGGTTAGTGCTA` has a log fluorescence of -0.791 z-score.
For `TGAGGTTTCGGTTCCGGTTAGTGCTAG`, the log fluorescence was 9.33 z-score.
The log fluorescence of `TCACTTCCCCATCTTGTACTGTGCTAG` is reported as 0.667 z-score.
The log fluorescence of `GACGGACTGGGTTTCGGTACGTGCTAG` is reported as 6.73 z-score.
`TGAGTCTTCCCTTTTAAGTTGTGCTAG` has a log fluorescence of 0.308 z-score.

Sample 2
Target: Histone acetyltransferase KAT6A, winged helix 1, GST fusion (KAT6A, Homo sapiens, UniProt Q92794, residues 1-85)
Technique: protein binding microarray
Form: double-stranded DNA, one strand shown
Medium: in vitro
Concentration: not given
Setting: 8-mer, flanks averaged, mean of 2 arrays, mostly near background
Relative to: not given
Reading: higher = stronger binding
Residues (chain): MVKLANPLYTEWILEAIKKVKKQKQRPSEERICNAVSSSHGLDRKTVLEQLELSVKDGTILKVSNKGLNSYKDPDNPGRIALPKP
`CAGCTGAA` has an E-score of -0.221.
`AATCGTCG` gave an E-score of 0.018.
With `CAGTCTAA` the E-score was -0.0211.
With `AAGTATGA` the E-score was -0.204.
With `AAGGAGGT` the E-score was -0.136.
The E-score of `GGTGCCGA` is reported as 0.287.
`AGTTCTTG` has an E-score of -0.101.
`CCTTAGTA` has an E-score of 0.0473.
`CACAGGAA` has an E-score of -0.212.
The E-score of `GCTAACAC` is reported as 0.0596.
The E-score of `AACAACCG` is reported as 0.00247.
With `GCCGTCAC` the E-score was 0.397.
`ACGTCGTC` gave an E-score of 0.102.
`CGTGCTCA` gave an E-score of -0.0784.
`AACCCGCC` gave an E-score of 0.402.
`CTCTAAAC` has an E-score of -0.0719.
`GTCTTTTA` has an E-score of -0.0749.
The E-score of `CTGTGGGC` is reported as -0.245.
With `TCGGGGCA` the E-score was 0.121.
`AGCCGGGA` gave an E-score of 0.0773.
For `AACTTTTG`, the E-score was -0.131.
`CCTCGTAG` gave an E-score of -0.00965.
`GTAAGTAA` has an E-score of -0.0873.
For `AAGCTCCG`, the E-score was 0.177.
`ACCTACTG` gave an E-score of -0.22.

Sample 3
Target: ABI1, truncated, D143A, DHFR fusion (Arabidopsis thaliana)
Technique: DHFR PCA, deep sequencing
Medium: yeast
Setting: methotrexate growth selection, single substitutions
With: (+)-ABA 2500 µM
Relative to: wild-type fitted maximum
Reading: higher = stronger binding
Parent: PYL1, truncated, DHFR fusion (Arabidopsis thaliana); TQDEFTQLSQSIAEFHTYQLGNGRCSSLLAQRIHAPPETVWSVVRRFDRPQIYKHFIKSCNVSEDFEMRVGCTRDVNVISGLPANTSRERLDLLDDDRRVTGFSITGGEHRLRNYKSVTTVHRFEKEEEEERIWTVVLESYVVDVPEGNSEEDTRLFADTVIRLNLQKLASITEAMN; partner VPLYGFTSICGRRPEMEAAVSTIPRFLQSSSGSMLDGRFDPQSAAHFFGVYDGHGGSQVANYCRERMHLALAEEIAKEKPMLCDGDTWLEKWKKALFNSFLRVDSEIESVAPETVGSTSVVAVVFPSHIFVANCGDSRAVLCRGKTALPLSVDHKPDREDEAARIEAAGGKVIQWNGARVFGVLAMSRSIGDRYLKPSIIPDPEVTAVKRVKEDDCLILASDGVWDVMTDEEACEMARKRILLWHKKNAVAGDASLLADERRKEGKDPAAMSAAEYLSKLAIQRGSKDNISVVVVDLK
`T106N`: “relative binding score” 93.4%.
`D95W` — result for “relative binding score”: 80.8%.
`R155C` — result for “relative binding score”: 95.5%.
Under “relative binding score”, `D95Y` is recorded as 80.9%.
Under “relative binding score”, `F15L` is recorded as 95.8%.
For `V145T`, “relative binding score” read 93.4%.
For `R155H`, “relative binding score” read 89.1%.
For `D144W`, “relative binding score” read 70.9%.
`E4T`: “relative binding score” 102%.
Under “relative binding score”, `H110W` is recorded as 16.1%.
Under “relative binding score”, `E139A` is recorded as 91.1%.
Under “relative binding score”, `F47K` is recorded as -23%.
`S59A`: “relative binding score” 97.4%.
For `V137M`, “relative binding score” read 61.2%.
For `D65K`, “relative binding score” read 95.6%.
For `T119G`, “relative binding score” read 2.31%.
Under “relative binding score”, `V137L` is recorded as 86.4%.
`I79R`: “relative binding score” 93.4%.

Sample 4
Target: CCNB3, cyclin fold, Cln2 fusion (human)
Technique: yeast growth competition, sequencing
Medium: yeast
Setting: weak parent motif
Relative to: not given
Reading: higher = stronger binding
Parent: DTL docking peptide (human); PSSMRKICTYFHR; partner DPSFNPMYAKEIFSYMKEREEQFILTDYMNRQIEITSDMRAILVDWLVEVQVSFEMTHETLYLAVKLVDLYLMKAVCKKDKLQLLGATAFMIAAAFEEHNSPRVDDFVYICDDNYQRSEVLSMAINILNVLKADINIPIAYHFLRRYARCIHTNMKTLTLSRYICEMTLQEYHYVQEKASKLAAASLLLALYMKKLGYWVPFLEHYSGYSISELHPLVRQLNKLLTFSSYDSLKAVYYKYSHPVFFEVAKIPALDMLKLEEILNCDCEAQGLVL
`S2A`: “normalised enrichment score” -0.219.
Under “normalised enrichment score”, `F11A` is recorded as 0.0892.
`R13A`: “normalised enrichment score” 0.246.
`H12A`: “normalised enrichment score” 0.32.
Under “normalised enrichment score”, `K6A` is recorded as 0.639.
Under “normalised enrichment score”, `M4A` is recorded as 0.613.

Sample 5
Target: RNA binding protein fox-1 homolog 2, RRM domain, GST-SBP tag (RBFOX2, Homo sapiens, UniProt O43251-10, residues 100-194)
Technique: RNA Bind-n-Seq
Form: RNA
Medium: in vitro
Concentration: 365 nM
Setting: natural RNA segment, single round, ends assumed
Relative to: no-protein control
Reading: higher = stronger binding
Residues (chain): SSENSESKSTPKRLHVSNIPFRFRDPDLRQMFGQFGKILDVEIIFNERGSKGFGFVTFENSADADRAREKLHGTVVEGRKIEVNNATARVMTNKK
`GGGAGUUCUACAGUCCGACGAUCUCUUUGUACUGUACUCCCCUGUCUCACCUGGGGCAACCUCAGAGCCCCACUAAGCUGAAGGCCCCCUGGGGGAGGGGGAAGCAUGGUCCUUAUCAUCUGCCCUAUCUUGCUGGAAUUCUCGGGUGCCAA` — result for “RBNS enrichment (R)”: 0.901.
`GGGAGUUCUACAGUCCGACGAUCUUUCUGUGACAGGUAACAAAUUUGGGGAAGACAGCACAAUCUUCUUGAAUGUAGCUCUUGGGAAUGCAUUAUUACAUCCAUUUCUGUAACAUAAUAAUAUGUUGCAUGCAUGGAAUUCUCGGGUGCCAA` — result for “RBNS enrichment (R)”: 9.6.
`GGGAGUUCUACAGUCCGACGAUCUUUUAUUUAGAUUUUGUUUUUCAUCUUACUAUGUACCAGUGGCACUUAACCAAAAGAUACAGUAACAUAGCCAUGUACUGUGGUUGGGACAGAUACAGUCUCCUUGGCUUUGGAAUUCUCGGGUGCCAA`: “RBNS enrichment (R)” 0.437.
`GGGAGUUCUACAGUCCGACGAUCAAGUGGAUGAGUUAUAGAGGAGGCCCUCGAGGCUGACCCAAUACGGUUACUAAGGGAGACUACAGGGAUCUCACGACAAACAUUCUGAUACAAUACUCAACCUCGGUAUAUGGAAUUCUCGGGUGCCAA` — result for “RBNS enrichment (R)”: 0.37.
For `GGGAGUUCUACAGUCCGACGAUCUUUAAUAUAUGACAGUUAUUUGAGAAGCCAUUUCUACUUUGAAGUCAUUAUCGAUGAAAGUGAUGUAUCUUCACCUACCAUUUUCCUAAUAAAGUUCUGUAUUCAAAUAUUGGAAUUCUCGGGUGCCAA`, “RBNS enrichment (R)” read 0.474.
`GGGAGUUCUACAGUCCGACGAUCGGAGCCAUAUUCGCAGUCUUCGUUUGUCAGUCAGCUGGGUGACCUUGAAUAAGCUGCUGCUUACCCCACUGAGCCUCAGUUUUUCCUAUGUAAGAGUGAUAUAAAACCUAUGGAAUUCUCGGGUGCCAA`: “RBNS enrichment (R)” 0.316.
`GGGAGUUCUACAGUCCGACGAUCAACAUAAAAGAAAAGAUCUGAUUCCCGCAGGUUCUCUUCUGACCUACACACACACACACUAAAAUAACAUUUAAAAAUAUGUGCCAAAUUAUAUUUGUUCGGGUGCCACCUGGAAUUCUCGGGUGCCAA`: “RBNS enrichment (R)” 0.825.
`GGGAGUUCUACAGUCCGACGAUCUCCAGAGGUUAAGAUGUAUUAGAAUUAUACAAUAUCAGUUUAAAAAUCUGUAUGCAUAAAGAAUGCACCACUCAACUUUUUUAUUCAUAAGCUAAUAUUUUUUUAAAGUUUGGAAUUCUCGGGUGCCAA`: “RBNS enrichment (R)” 1.01.

For quick reference, copied from above (sample 1):
For `TCACATCTCCAAAGTCAGACTGTGCTA`, the log fluorescence was 0.0735 z-score.
`CACGGTCTCCTTTTCCTGACGTGCTAG` has a log fluorescence of 0.00238 z-score.
The log fluorescence of `TCTTGTCTGGATGTGCCTTAGTGCTAG` is reported as -0.256 z-score.
The log fluorescence of `GACTGTCTCCTTATCCTGACGTGCTAG` is reported as 0.13 z-score.
`CGCGCTTCTCGGCGGCGAAGGTGCTAG` has a log fluorescence of -0.7 z-score.
`TTCGATTTCAGACTGGATTAGTGCTAG` has a log fluorescence of 0.945 z-score.
With `GAAGGTATCCTTCTCCTGACGTGCTAG` the log fluorescence was 0.14 z-score.
